Experimental data pooled from the literature.
Protocols differ between the studies behind these lines. Values joined by “and” are separate records of one study, mostly repeats; a detail may differ. Numbers after ± are the reported error.
folP: Dihydropteroate synthase (folP, Bacteria, UniProt P0AC13)
T1: RNA aptamer; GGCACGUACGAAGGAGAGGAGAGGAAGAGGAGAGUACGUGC
T2: RNA aptamer; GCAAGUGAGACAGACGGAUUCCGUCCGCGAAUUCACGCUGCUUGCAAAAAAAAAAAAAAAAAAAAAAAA

SMILES	target	test	test system	setting	how to read	measurement	result
Cn1nnnc1NCc1nn(C)c2nc(N)[nH]c(=O)c2c1=O	folP	CETSA HiBiT	whole cells	–	–	melting temperature	63.9 °C
Cn1c(=O)n(C2CCC(=O)NC2=O)c2ccc(C3CCN(CC(=O)Nc4cccc(CS(=O)(=O)N5CC[C@H](Nc6cccc(-c7sc(C(=O)O)c(OCC(=O)O)c7Cl)c6)CC5(C)C)c4)CC3)cc21 (stereo partly shown)	PTPN1 (Homo sapiens, UniProt P18031)	degrader, bio-layer interferometry	–	125 nM, biotinylated protein immobilised	higher = more binding	BLI binding response	0.241 a.u.
COc1cc(Nc2nccc(-c3cnn4nc(OC)ccc34)n2)cc(C(F)(F)F)c1	Tyrosine-protein kinase ABL1, phosphorylated (ABL1, Homo sapiens, UniProt P00519, Q252H)	binding	–	1 µM	–	remaining binding	85%
Cn1nc(CCCC(=O)O)c(=O)c2c(=O)[nH]c(N)nc21	folP	CETSA HiBiT	Escherichia coli, whole cells	concentration not given	baseline: whole cell over lysate ΔTm	target engagement efficiency	10.5%
CCC1Sc2ccc(S(=O)(=O)CCC(=O)Nc3cccc4ccccc34)cc2NC1=O (stereo not shown)	P2X purinoceptor 7 (Ailuropoda melanoleuca, UniProt G1M6C4)	ATP-evoked current, inhibitor, whole-cell patch clamp	HEK293 transfected	1 µM, wild type	–	remaining current	74.9%
CC[C@H](C)[C@@H]1NC(=O)[C@H](CO)NC(=O)[C@H](CCC(N)=O)NC(=O)[C@@H](NC(=O)CN)CSSC[C@@H]2NC(=O)CNC(=O)[C@H](C)NC(=O)[C@H](CC(C)C)NC(=O)[C@@H]3CSSC[C@@H](C(=O)NCC(=O)O)NC(=O)[C@H](Cc4ccccc4)NC(=O)CNC(=O)[C@H](CC(N)=O)NC(=O)[C@@H]4CCCN4C(=O)CNC(=O)[C@H](CSSC[C@H](NC(=O)[C@H](CCCNC(=N)N)NC(=O)[C@H](CCC(N)=O)NC(=O)[C@H](CCCNC(=N)N)NC(=O)[C@H](CCCCN)NC(=O)[C@H](C(C)C)NC(=O)[C@H](CCCNC(=N)N)NC(=O)[C@H](CC(N)=O)NC1=O)C(=O)N[C@@H](CCCCN)C(=O)N[C@@H](CCC(N)=O)C(=O)N[C@@H](CC(=O)O)C(=O)N[C@@H](CO)C(=O)N[C@@H](CC(=O)O)C(=O)N3)NC(=O)[C@H](C(C)C)NC2=O	Low-density lipoprotein receptor-related protein 6, E1 domain (LRP6, Homo sapiens, UniProt O75581)	binding, SPR	–	pH 7.5	–	kon	2.18e+06 ± 260000 M⁻¹ s⁻¹
CCC1(C)C(=O)N(c2cccc(CN3CCN(Cc4ccc(Br)cc4)CC3)c2)C1=O	DPP9 (Homo sapiens, UniProt Q86TI2)	enzyme activity, inhibitor	–	5 µM	–	activity vs control	70%
O=C(N[C@@H](Cc1ccc(OCCCCC2CCNCC2)cc1)C(=O)O)c1nc2ccccc2o1.O=C(O)C(F)(F)F	Integrin alpha-IIb/beta-3 (Homo sapiens, UniProt P05106+P08514)	inhibitor, flow cytometry	washed platelets, human	8000 nM, 30 min, room temperature, with: ADP 20 µM, Alexa647-fibrinogen	higher = more binding	fibrinogen binding MFI	0 a.u.
CCc1occc(=O)c1[O-].[Cl-].[W+4].c1cc[cH-]c1.c1cc[cH-]c1	Albumin (ALB, Homo sapiens, UniProt P02768)	binding, fluorescence quenching	–	317 K	–	Gibbs free energy change	-6.14 kcal/mol
O=C1c2sc(-c3ccc(N4CCC(CO)CC4)nc3F)nc2CCN1c1cccnc1	TAR DNA-binding protein 43, aggregated (TARDBP, Homo sapiens, UniProt Q13148)	radioligand binding	human, FTLD-TDP type B sarkosyl-insoluble extract	52.06 nM	–	specific binding	1.24 nM and 1.97 nM
Cc1n[nH]c2nc(N)[nH]c(=O)c2c1=O	folP	CETSA HiBiT	Escherichia coli, whole cells	–	–	melting temperature	56.6 °C
COc1cc(-c2cn(C)c(=O)c3cnccc23)cc(OC)c1CN(C)C	TAF1 (Homo sapiens, UniProt P21675)	–	–	–	–	ΔTm	1 °C
CN(Cc1nn(C)c2nc(N)[nH]c(=O)c2c1=O)c1nnn[nH]1	folP	CETSA HiBiT	Escherichia coli, whole cells	–	–	melting temperature	59.3 °C
CCCCCC(O)/C=C/C=O (stereo not shown)	Alpha-adducin (ADD1, Homo sapiens, UniProt P35611)	competitive isoTOP-ABPP, refers to: ADD1 cysteine peptide	proteome, soluble, MDA-MB-231	100 µM, with: iodoacetamide probe	baseline: DMSO over compound-treated, higher = stronger cysteine blockade	isoTOP-ABPP competition ratio	1.7
COc1ccccc1-c1ccncc1C(=O)Nc1nnc(OCc2ccc(Cl)cc2)s1	RecQ-like DNA helicase BLM, residues 636–1298 (BLM, Homo sapiens, UniProt P54132)	ATPase activity, ADP-Glo	–	0.12 µM, 1 h	–	remaining activity	106%
CCCCCC=CC=C1C(=O)C=CC1CC=CCCCC(=O)O (stereo not shown)	ATP6V1A (Homo sapiens, UniProt P38606)	competitive isoTOP-ABPP	proteome, soluble, MDA-MB-231	100 µM, with: iodoacetamide probe	baseline: DMSO over compound-treated, higher = stronger cysteine blockade	isoTOP-ABPP competition ratio	1.2
CC[C@H](C)[C@H](NC(=O)[C@H](Cc1c[nH]cn1)NC(C)=O)C(=O)N[C@@H](CCCCN)C(=O)N[C@H](C(=O)N[C@@H](Cc1c[nH]cn1)C(=O)N[C@@H](CC(C)C)C(=O)N[C@@H](CC(=O)O)C(=O)N[C@@H](CCC(=O)O)C(=O)N[C@@H](CCC(=O)O)C(=O)N[C@H](C(=O)NCC(=O)N[C@@H](CCC(=O)O)C(=O)N[C@@H](CCCCN)C(=O)N[C@H](C(=O)N[C@@H](CO)C(=O)N[C@H](C(=O)N[C@H](C(=O)N[C@@H](CC(C)C)C(=O)N[C@@H](CC(=O)O)C(=O)N[C@H](C(N)=O)C(C)C)[C@@H](C)O)[C@@H](C)CC)[C@@H](C)O)[C@@H](C)O)[C@@H](C)O	Kelch-like ECH-associated protein 1, Kelch domain (KEAP1, Homo sapiens, UniProt Q14145)	binding, ITC	–	pH 7, 298.15 K	–	ΔH	-19.3 ± 0.123 kcal/mol
Cn1nc(C(=O)O)c(=O)c2c(=O)[nH]c(N)nc21	folP	CETSA HiBiT	Escherichia coli, whole cells	–	–	melting temperature	57.1 °C
C=CC(=O)N1CC2(CCN(c3nc(OC4CCN(CCCOC)CC4)nc4c(OCC(F)(F)F)c(-c5c(C)ccc6[nH]ncc56)c(C5CC5)cc34)CC2)C1	GTPase KRas, GDP-bound (KRAS, Homo sapiens, UniProt P01116, G12D)	SPR	–	–	–	dissociation rate constant koff	0.303 ± 0.013 s⁻¹
Cn1nnnc1SCc1nn(C)c2nc(N)[nH]c(=O)c2c1=O	folP	CETSA HiBiT	Escherichia coli, whole cells	–	–	melting temperature	63.2 °C
CC[C@@H](C)[C@@H](NC(=O)[C@@H](Cc1ccc(O)cc1)NC(=O)[C@H]1CCCN1C(=O)[C@@H](CCCNC(=N)N)NC(=O)[C@H](N)Cc1c[nH]cn1)C(=O)N[C@H](C)C(=O)N[C@H](Cc1c[nH]cn1)C(=O)NCC(=O)NCC(=O)NCC(=O)N[C@@H](CCCCNC(=O)CCCC[C@@H]1SC[C@@H]2NC(=O)N[C@@H]21)C(N)=O	CD274 (Homo sapiens, UniProt Q9NZQ7)	flow cytometry	hPD-L1-expressing cells	concentration not given	–	binding rate	1.56% and 1.49% and 1.79%
N#CN1CC[C@H](C(=O)Nc2nc3c(s2)CN(C(=O)Cn2cc(CNC(=O)CCCC[C@@H]4SC[C@@H]5NC(=O)N[C@@H]54)nn2)CC3)C1	UBA1 (Homo sapiens, UniProt P22314)	probe binding, affinity probe, neutravidin pull-down LC-MS/MS	HEK293T, cell lysate	5 µM, 1 h, mean of three replicates, unit not given	higher = more pulled down	iBAQ abundance	3.25e+06
Cc1ccc2c(c1)N(C)C=CC2=Cc1sc2ccccc2[n+]1C	T1, RNA aptamer	fluorescence titration	–	–	–	Kd	0.00777 µM
C#CCOC(=O)[C@]1(C)C=C(C(=O)OC(C)(C)C)C(=O)CC1	MAPK8 (Homo sapiens, UniProt P45983)	enzyme activity, D-SENSOR	–	44.44 µM, mean of replicates	–	normalized kinase activity	0.617
CC(=O)C12NC(C)(C)CC1(C)C(=O)C1=C2c2c(c3c4n2C(C)(C)CC2=C4C4(CC(C)(C)NC(C)(C4)C2=O)CC3(C)C)C(=O)C(C)(C)N1 (single isomer, unassigned; (+))	Glutamate NMDA receptor; GRIN1/GRIN2A (Homo sapiens, UniProt Q05586+Q12879)	ion current, agonist, whole-cell patch clamp	HEK293T	10 µM	–	activation	1.42%
CC(C)Oc1cc(Cl)ccc1CNc1cc(-c2ccccc2)nc2ncnn12	GPR3 (Homo sapiens, UniProt P46089, R152A)	cAMP level, cAMP GloSensor	–	1 µM	higher = more cAMP	cAMP luminescence	18900 a.u. and 20100 a.u. and 14900 a.u. and 20500 a.u.
CC(C(=O)O)c1n[nH]c2nc(N)[nH]c(=O)c2c1=O (stereo not shown)	folP	CETSA HiBiT	Escherichia coli, whole cells	concentration not given	baseline: whole cell over lysate ΔTm	target engagement efficiency	23.6%
Fc1ccc(Nc2nc(NCc3ncccn3)nc(Nc3ccccc3)n2)cc1	T2, RNA aptamer	SPR	–	25 °C, read off a plot	–	Kd	6.7 µM

A few entries again:
SMILES	target	test	test system	setting	how to read	measurement	result
CCC1(C)C(=O)N(c2cccc(CN3CCN(Cc4ccc(Br)cc4)CC3)c2)C1=O	DPP9 (Homo sapiens, UniProt Q86TI2)	enzyme activity, inhibitor	–	5 µM	–	activity vs control	70%
O=C(N[C@@H](Cc1ccc(OCCCCC2CCNCC2)cc1)C(=O)O)c1nc2ccccc2o1.O=C(O)C(F)(F)F	Integrin alpha-IIb/beta-3 (Homo sapiens, UniProt P05106+P08514)	inhibitor, flow cytometry	washed platelets, human	8000 nM, 30 min, room temperature, with: ADP 20 µM, Alexa647-fibrinogen	higher = more binding	fibrinogen binding MFI	0 a.u.
CCc1occc(=O)c1[O-].[Cl-].[W+4].c1cc[cH-]c1.c1cc[cH-]c1	Albumin (ALB, Homo sapiens, UniProt P02768)	binding, fluorescence quenching	–	317 K	–	Gibbs free energy change	-6.14 kcal/mol
O=C1c2sc(-c3ccc(N4CCC(CO)CC4)nc3F)nc2CCN1c1cccnc1	TAR DNA-binding protein 43, aggregated (TARDBP, Homo sapiens, UniProt Q13148)	radioligand binding	human, FTLD-TDP type B sarkosyl-insoluble extract	52.06 nM	–	specific binding	1.24 nM and 1.97 nM
Cc1n[nH]c2nc(N)[nH]c(=O)c2c1=O	folP	CETSA HiBiT	Escherichia coli, whole cells	–	–	melting temperature	56.6 °C
